{"data": "Published values from different studies", "note": "Compare with care: the assays were run in different laboratories. “And” joins repeats or separate records; there may be more than shown. ± gives the spread as reported."}
{"Compound": "CCN(CCCCOc1ccc(CCC(=O)N2CCC(Cc3ccccc3)CC2)cc1OC)Cc1ccccc1", "system": "Sprague-Dawley rats, both sexes, faeces", "setting": "oral gavage, 25 mg/kg, 0 to 6 h", "endpoint": "excreted amount", "result": "67.8 ± 39.7 ng"}
{"Compound": "CC[C@H](C)[C@H](NC(=O)[C@H](Cc1ccc(O)cc1)NC(=O)[C@H](C)NC(=O)[C@H](CC(=O)O)NC(=O)[C@H](CC(C)C)NC(=O)[C@H](C)NC(=O)[C@H](C)NC(=O)[C@H](CCCCN)NC(=O)CNC(=O)[C@@H](NC(=O)[C@H](Cc1c[nH]cn1)NC(=O)[C@H](CCCCN)NC(=O)CNC(=O)[C@@H](NC(=O)[C@H](Cc1c[nH]cn1)NC(=O)[C@@H](NC(=O)[C@H](C)NC(=O)[C@H](CCCCN)NC(=O)[C@H](CCCCN)NC(=O)[C@@H](NC(=O)[C@H](Cc1c[nH]c2ccccc12)NC(=O)[C@H](CCCCN)NC(=O)[C@H](CCCNC(=N)N)NC(=O)[C@H](Cc1c[nH]c2ccccc12)NC(=O)CN)[C@@H](C)CC)[C@@H](C)O)C(C)C)[C@@H](C)CC)C(N)=O", "system": "zebrafish embryos 4 hpf, E3 medium", "setting": "1 h", "endpoint": "acute toxic concentration", "result": "5 µM"}
{"Compound": "CC(C)[C@@H]1NC(=O)CNC(=O)[C@H](CC(N)=O)NC(=O)[C@H](CCCNC(=N)N)NC(=O)[C@H](Cc2ccc(O)cc2)NC(=O)[C@H](C(C)C)NC(=O)[C@@H](NC(=O)[C@@H](NC(=O)[C@H](CC(N)=O)NC(=O)[C@H](Cc2c[nH]c3ccccc23)NC(=O)[C@H](C)NC(=O)[C@H](Cc2ccccc2)NC(=O)CNC(=O)[C@H](CCCCN)NC(=O)[C@H](Cc2ccccc2)NC(=O)[C@H](Cc2ccccc2)NC(=O)[C@H](CCCCN)NC(=O)OCC2c3ccccc3-c3ccccc32)C(C)C)CSSC[C@@H](C(=O)N[C@@H](Cc2c[nH]cn2)C(=O)N[C@@H](CCCNC(=N)N)C(=O)N[C@@H](CCCNC(=N)N)C(=O)N[C@@H](C)C(=O)N[C@@H](CC(N)=O)C(N)=O)NC(=O)[C@H](C(C)C)NC(=O)[C@H](CCCNC(=N)N)NC1=O", "system": "ICR mice, blood", "setting": "intraductal mammary, 5 mg/kg, day 5", "endpoint": "mean platelet volume", "result": "6.86 ± 0.24 fL"}
{"Compound": "CC(C)NCCCn1c(Sc2cc3c(cc2I)OCO3)nc2c(N)ncnc21", "test": "LC-MS/MS", "system": "human, left lymph node lesion biopsy", "setting": "140 mg/m^2, 24 h post-injection", "endpoint": "tumour concentration", "result": "2.8 µM"}
{"Compound": "CC1(C)C(=O)N(c2ccc(C#N)c(C(F)(F)F)c2)C(=S)N1c1ccc(C(N)=O)c(F)c1", "system": "human, male, plasma", "setting": "oral, 40 mg, single dose, fasting", "endpoint": "AUC(0-t)", "result": "68000 ± 9560 ng·h/mL"}
{"Compound": "COc1c(N2CC3CCCN(C(=O)OCc4cnc([N+](=O)[O-])s4)C3C2)c(F)cc2c(=O)c(C(=O)O)cn(C3CC3)c12 (stereo not shown)", "test": "cyclic voltammetry", "system": "anhydrous acetonitrile", "setting": "concentration not given", "scale": "baseline: Ag/AgCl", "endpoint": "reduction potential", "result": "-0.83 V"}
{"Compound": "N#[11C]c1ccc(-c2csc(NN=C3CCCC3)n2)cc1", "system": "C57BL/6 mice, male, kidney", "setting": "intravenous, 3 MBq, 5 min", "endpoint": "radioactivity uptake", "result": "10.7 ± 1.1 %ID/g"}
{"Compound": "COC(=O)C[C@@H](NC(=O)[C@@H](Cc1ccc(-c2ccccc2)cc1)NC(=O)c1ccc(-c2ccc(OP(=O)(O)O)cc2)cc1)C(=O)OC", "system": "PBS", "setting": "pH 7.4, before phosphatase treatment", "endpoint": "critical micelle concentration", "result": "189 µM"}
{"Compound": "O=C1NC2(CC2)COc2ncc(F)cc2[C@H]2COCCN2c2ccn3ncc1c3n2", "system": "Sprague-Dawley rat, female, blood", "setting": "oral, 2.5 mg/kg/day, 4 weeks, end of recovery, subacute toxicity", "endpoint": "lymphocyte percentage", "result": "80.3 ± 5.1%"}
{"Compound": "C=Cc1c(C)c2cc3nc(c(CC(=O)O)c4[nH]c(cc5nc(cc1[nH]2)C(C)=C5CC)c(C)c4C(=O)O)[C@@H](CCC(=O)NCCCC[C@H](NC(C)=O)C(=O)N[C@@H](Cc1ccccc1)C(=O)N[C@@H](Cc1ccccc1)C(=O)N[C@H](C(=O)N[C@@H](CC(C)C)C(=O)N[C@@H](CCCCN)C(=O)N[C@@H](CO)C(=O)NCC(=O)N[C@@H](CCC(N)=O)C(=O)N[C@@H](Cc1ccc(O)cc1)C(=O)N[C@@H](C)C(=O)N[C@@H](CO)C(=O)N[C@@H](Cc1ccc(O)cc1)C(=O)N[C@@H](Cc1c[nH]cn1)C(=O)N[C@@H](CS)C(=O)N[C@@H](Cc1c[nH]c2ccccc12)C(=O)N[C@@H](CS)C(=O)N[C@@H](Cc1c[nH]c2ccccc12)C(=O)N[C@@H](CCCNC(=N)N)C(=O)N[C@@H](CC(=O)O)C(=O)N1CCC[C@H]1C(=O)NCC(=O)N[C@@H](CCCNC(=N)N)C(=O)N[C@@H](CO)C(=O)NCC(=O)NCC(=O)N[C@@H](CO)C(=O)N[C@@H](CCCCN)C(N)=O)C(C)C)[C@@H]3C", "system": "mouse, 4T1 breast tumour, serum", "setting": "concentration not given, 21 days after single dose", "endpoint": "TNF level", "result": "43.8 pg/mL and 37.9 pg/mL and 47 pg/mL"}
{"Compound": "CC[C@H](C)[C@@H]1NC(=O)[C@H](Cc2ccc(O)cc2)NC(=O)CCCSC[C@@H](C(=O)N(CC(=O)N[C@@H](CC(C)C)C(=O)NCC(N)=O)Cc2ccc(F)cc2)NC(=O)[C@H](CC(N)=O)NC(=O)[C@H](CCC(N)=O)NC1=O", "system": "human", "setting": "intranasal and intravenous, 400 µg intranasal and 20 µg intravenous", "endpoint": "deaths", "result": "0%"}
{"Compound": "COc1ccc([C@@H]2CC(=O)c3c(O)cc(O[C@@H]4O[C@H](CO)[C@@H](O)[C@H](O)[C@H]4O[C@@H]4O[C@@H](C)[C@H](O)[C@@H](O)[C@H]4O)cc3O2)cc1O", "system": "male Sprague-Dawley rats, lean, urine", "setting": "oral, 100 mg/kg, 48 h", "endpoint": "cumulative urinary excretion", "result": "27.3 ± 10.2 ng"}
{"Compound": "CC[C@H](C)[C@H](NC(=O)[C@H](CCCCN)NC(=O)CNC(=O)[C@H](CC(C)C)NC(=O)[C@H](Cc1ccccc1)NC(=O)[C@H](CCCCN)NC(=O)[C@H](CO)NC(=O)[C@H](Cc1ccccc1)NC(=O)[C@H](Cc1c[nH]c2ccccc12)NC(=O)[C@H](CCC(N)=O)NC(=O)[C@@H](NC(=O)[C@H](Cc1ccccc1)NC(=O)CCCCCNC(=O)CN1CCN(CC(=O)O)CCN(CC(=O)O)CCN(CC(=O)O)CC1)C(C)C)C(=O)N[C@@H](CCC(=O)O)C(=O)N1CCC[C@H]1C(=O)N[C@@H](CC(=O)O)C(=O)N[C@H](C(=O)N[C@@H](CO)C(=O)N[C@@H](CCC(N)=O)C(=O)N[C@H](C(=O)N[C@@H](CCC(N)=O)C(=O)N[C@@H](CC(=O)O)C(=O)N1CCC[C@H]1C(=O)N[C@@H](CC(N)=O)C(=O)N[C@@H](CC(=O)O)C(=O)N[C@@H](CCC(N)=O)C(=O)N[C@@H](Cc1ccc(O)cc1)C(=O)N[C@@H](CCC(=O)O)C(=O)N1CCC[C@H]1C(=O)N[C@@H](Cc1ccccc1)C(=O)O)C(C)C)C(C)C [copper-64 labelled]", "test": "dynamic PET", "system": "mouse, CT26 tumour, checkpoint inhibitor-treated, tumour", "setting": "intravenous, 100 µCi/mouse, 1620 s", "endpoint": "SUVmean", "result": "4.57 SUV"}
{"note": "Some of these lines once more:"}
{"Compound": "CCN(CCCCOc1ccc(CCC(=O)N2CCC(Cc3ccccc3)CC2)cc1OC)Cc1ccccc1", "system": "Sprague-Dawley rats, both sexes, faeces", "setting": "oral gavage, 25 mg/kg, 0 to 6 h", "endpoint": "excreted amount", "result": "67.8 ± 39.7 ng"}
{"Compound": "CC[C@H](C)[C@H](NC(=O)[C@H](CCCCN)NC(=O)CNC(=O)[C@H](CC(C)C)NC(=O)[C@H](Cc1ccccc1)NC(=O)[C@H](CCCCN)NC(=O)[C@H](CO)NC(=O)[C@H](Cc1ccccc1)NC(=O)[C@H](Cc1c[nH]c2ccccc12)NC(=O)[C@H](CCC(N)=O)NC(=O)[C@@H](NC(=O)[C@H](Cc1ccccc1)NC(=O)CCCCCNC(=O)CN1CCN(CC(=O)O)CCN(CC(=O)O)CCN(CC(=O)O)CC1)C(C)C)C(=O)N[C@@H](CCC(=O)O)C(=O)N1CCC[C@H]1C(=O)N[C@@H](CC(=O)O)C(=O)N[C@H](C(=O)N[C@@H](CO)C(=O)N[C@@H](CCC(N)=O)C(=O)N[C@H](C(=O)N[C@@H](CCC(N)=O)C(=O)N[C@@H](CC(=O)O)C(=O)N1CCC[C@H]1C(=O)N[C@@H](CC(N)=O)C(=O)N[C@@H](CC(=O)O)C(=O)N[C@@H](CCC(N)=O)C(=O)N[C@@H](Cc1ccc(O)cc1)C(=O)N[C@@H](CCC(=O)O)C(=O)N1CCC[C@H]1C(=O)N[C@@H](Cc1ccccc1)C(=O)O)C(C)C)C(C)C [copper-64 labelled]", "test": "dynamic PET", "system": "mouse, CT26 tumour, checkpoint inhibitor-treated, tumour", "setting": "intravenous, 100 µCi/mouse, 1620 s", "endpoint": "SUVmean", "result": "4.57 SUV"}
